# Measurements pooled from the literature.
# Values joined by “and” are separate records of one study, mostly repeats; a detail may differ.
# Target: Glucagon-like peptide 1 receptor (GLP1R, Homo sapiens, UniProt P43220)
# UniProt P43220, sequence (whole entry, looked up): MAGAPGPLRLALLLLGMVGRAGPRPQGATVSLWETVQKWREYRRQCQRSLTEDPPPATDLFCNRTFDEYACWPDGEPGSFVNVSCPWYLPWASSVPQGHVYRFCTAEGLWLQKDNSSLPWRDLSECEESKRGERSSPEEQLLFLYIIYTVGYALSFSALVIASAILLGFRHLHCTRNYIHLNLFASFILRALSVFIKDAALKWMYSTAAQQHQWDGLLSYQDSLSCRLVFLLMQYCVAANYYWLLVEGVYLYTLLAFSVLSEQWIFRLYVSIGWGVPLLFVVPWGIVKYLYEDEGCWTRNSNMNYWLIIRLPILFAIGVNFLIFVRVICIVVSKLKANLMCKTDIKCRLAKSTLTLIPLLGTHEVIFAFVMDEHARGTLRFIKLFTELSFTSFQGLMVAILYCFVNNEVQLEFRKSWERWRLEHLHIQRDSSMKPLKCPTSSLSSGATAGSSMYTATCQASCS
# Action: agonist
SMILES,assay,system,EC50
CC[C@H](C)[C@H](NC(=O)[C@H](Cc1ccccc1)NC(=O)[C@H](CCC(=O)O)NC(=O)[C@H](CCCCN)NC(=O)[C@H](C)NC(=O)[C@H](C)NC(=O)[C@H](CCC(N)=O)NC(=O)CNC(=O)[C@H](CCC(=O)O)NC(=O)[C@H](CC(C)C)NC(=O)[C@H](Cc1ccc(O)cc1)NC(=O)C[C@@H](NC(=O)[C@H](CO)NC(=O)C(C)(C)NC(=O)[C@H](CC(=O)O)NC(=O)[C@H](CO)NC(=O)[C@@H](NC(=O)[C@H](Cc1ccccc1)NC(=O)[C@@H](NC(=O)CNC(=O)[C@H](CCC(=O)O)NC(=O)[C@H](C)NC(=O)[C@@H](N)Cc1c[nH]cn1)[C@@H](C)O)[C@@H](C)O)C(C)C)C(=O)N[C@@H](C)C(=O)N[C@@H](Cc1c[nH]c2ccccc12)C(=O)N[C@@H](CC(C)C)C(=O)N[C@H](C(=O)N[C@@H](CCCCN)C(=O)NCC(=O)N[C@@H](CCCNC(=N)N)C(N)=O)C(C)C,"β-arrestin-1 recruitment, BRET",HEK293FT with GRK5,6.31 nM
CC[C@H](C)[C@H](NC(=O)[C@H](Cc1ccccc1)NC(=O)[C@H](CCC(=O)O)NC(=O)[C@H](CCCCN)NC(=O)[C@H](C)NC(=O)[C@H](C)NC(=O)[C@H](CCC(N)=O)NC(=O)CNC(=O)[C@H](CCC(=O)O)NC(=O)[C@H](CC(C)C)NC(=O)[C@H](Cc1ccc(O)cc1)NC(=O)[C@H](CO)NC(=O)[C@H](CO)NC(=O)[C@@H](NC(=O)[C@H](CC(=O)O)NC(=O)[C@H](CO)NC(=O)[C@@H](NC(=O)[C@H](Cc1ccccc1)NC(=O)[C@@H](NC(=O)CNC(=O)[C@H](CCC(=O)O)NC(=O)[C@H](C)NC(=O)[C@H](Cc1c[nH]cn1)NC[C@@H](N)CO)[C@@H](C)O)[C@@H](C)O)C(C)C)C(=O)N[C@@H](C)C(=O)N[C@@H](Cc1c[nH]c2ccccc12)C(=O)N[C@@H](CC(C)C)C(=O)N[C@H](C(=O)N[C@@H](CCCCN)C(=O)NCC(=O)N[C@@H](CCCNC(=N)N)C(N)=O)C(C)C,"reporter gene, luciferase",,0.0251 nM and 0.025 nM
COc1cc(C2C(NC(=O)c3ccc(NC(=O)OC(C)(C)C)cc3)(C(=O)O)C(c3ccc(OC(=O)c4cccs4)c(OC)c3)C2(NC(=O)c2ccc(NC(=O)OC(C)(C)C)cc2)C(=O)O)ccc1OC(=O)c1cccs1 (stereo not shown),cAMP production,,16.6 nM
CC[C@H](C)[C@H](NC(=O)[C@H](Cc1ccccc1)NC(=O)[C@H](CCC(=O)O)NC(=O)[C@H](CCCCN)NC(=O)[C@H](C)NC(=O)[C@H](C)NC(=O)[C@H](CCC(N)=O)NC(=O)CNC(=O)[C@H](CCC(=O)O)NC(=O)[C@H](CC(C)C)NC(=O)[C@H](Cc1ccc(O)cc1)NC(=O)[C@H](CO)NC(=O)[C@H](CO)NC(=O)C(C)(C)NC(=O)[C@H](CC(=O)O)NC(=O)[C@H](CO)NC(=O)[C@@H](NC(=O)[C@H](Cc1ccccc1)NC(=O)[C@@H](NC(=O)CNC(=O)[C@H](CCC(=O)O)NC(=O)[C@H](C)NC(=O)[C@@H](N)Cc1c[nH]cn1)[C@@H](C)O)[C@@H](C)O)C(=O)N[C@@H](C)C(=O)N[C@@H](Cc1c[nH]c2ccccc12)C(=O)N[C@@H](CC(C)C)C(=O)N[C@H](C(=O)N[C@@H](CCCCN)C(=O)NCC(=O)N[C@@H](CCCNC(=N)N)C(N)=O)C(C)C,"cAMP, luciferase",,0.0316 nM
CC[C@H](C)[C@H](NC(=O)[C@H](Cc1ccccc1)NC(=O)[C@H](CCC(=O)O)NC(=O)[C@H](CCCCN)NC(=O)[C@H](C)NC(=O)[C@H](C)NC(=O)[C@H](CCC(N)=O)NC(=O)CNC(=O)[C@H](CCC(=O)O)NC(=O)[C@H](CC(C)C)NC(=O)[C@H](Cc1ccc(O)cc1)NC(=O)[C@H](CO)NC(=O)[C@H](CO)NC(=O)[C@@H](NC(=O)[C@H](CC(=O)O)NC(=O)[C@H](CO)NC(=O)[C@@H](NC(=O)CN(C[C@@H](NC(=O)CNC(=O)CN(C[C@H](C)NC(=O)[C@H](Cc1c[nH]cn1)NC(C)=O)S(=O)(=O)c1ccc(C(=O)O)cc1)[C@H](C)O)S(=O)(=O)Cc1ccccc1)[C@@H](C)O)C(C)C)C(=O)N[C@@H](C)C(=O)N[C@@H](Cc1c[nH]c2ccccc12)C(=O)N[C@@H](CC(C)C)C(=O)N[C@H](C(=O)N[C@@H](CCCCN)C(=O)NCC(=O)N[C@@H](CCCNC(=N)N)C(=O)NCC(N)=O)C(C)C,"reporter gene, luciferase",,> 1000 nM
CC[C@H](C)[C@H](NC(=O)[C@H](Cc1ccccc1)NC(=O)[C@H](CCC(=O)O)NC(=O)[C@H](CCCCN)NC(=O)[C@H](C)NC(=O)[C@H](C)NC(=O)[C@H](CCC(N)=O)NC(=O)CNC(=O)[C@H](CCC(=O)O)NC(=O)[C@H](CC(C)C)NC(=O)[C@H](Cc1ccc(O)cc1)NC(=O)[C@H](CO)NC(=O)[C@H](CO)NC(=O)[C@@H](NC(=O)[C@H](CC(=O)O)NC(=O)[C@H](CO)NC(=O)[C@@H](NC(=O)[C@H](Cc1ccccc1)NC(=O)[C@@H](NC(=O)CNC(=O)[C@H](CCC(=O)O)NC(=O)[C@H](C)NC(=O)[C@H](Cc1c[nH]cn1)NCc1ccc(-c2ccccc2)cc1)[C@@H](C)O)[C@@H](C)O)C(C)C)C(=O)N[C@@H](C)C(=O)N[C@@H](Cc1c[nH]c2ccccc12)C(=O)N[C@@H](CC(C)C)C(=O)N[C@H](C(=O)N[C@@H](CCCCN)C(=O)NCC(=O)N[C@@H](CCCNC(=N)N)C(N)=O)C(C)C,"reporter gene, luciferase",,0.0158 nM
CC(C)C[C@H](NC(=O)[C@H](Cc1ccc(O)cc1)NC(=O)[C@H](CO)NC(=O)[C@H](CO)NC(=O)[C@@H](NC(=O)[C@H](CC(=O)O)NC(=O)[C@H](CO)NC(=O)[C@@H](NC(=O)[C@H](Cc1ccccc1)NC(=O)[C@@H](NC(=O)CNC(=O)[C@H](CCC(=O)O)NC(=O)[C@H](C)NC(=O)[C@@H](N)Cc1c[nH]cn1)[C@@H](C)O)[C@@H](C)O)C(C)C)C(=O)N[C@@H](CCC(=O)O)C(=O)NCCN(CC(=O)N[C@@H](C)C(=O)N[C@@H](C)CN(CC(=O)N[C@@H](CCC(=O)O)C(=O)N[C@@H](Cc1ccccc1)CN(CC(=O)N[C@@H](C)C(=O)N[C@@H](Cc1c[nH]c2ccccc12)CN(CC(=O)N[C@H](C(=O)N[C@@H](CCCCN)CN(CC(=O)N[C@@H](CCCNC(=N)N)C(=O)N[C@@H](CCCCN)CN(CC(N)=O)S(C)(=O)=O)S(C)(=O)=O)C(C)C)S(=O)(=O)CC(C)C)S(=O)(=O)CC(C)C)S(=O)(=O)CCN)S(=O)(=O)CCN,"reporter gene, luciferase",,> 1000 nM
CC[C@H](C)[C@H](NC(=O)[C@H](Cc1ccccc1)NC(=O)[C@H](CCC(=O)O)NC(=O)[C@H](CCCCN)NC(=O)[C@H](C)NC(=O)[C@H](C)NC(=O)[C@H](CCC(N)=O)NC(=O)CNC(=O)[C@H](CCC(=O)O)NC(=O)[C@H](CC(C)C)NC(=O)[C@H](Cc1ccc(O)cc1)NC(=O)[C@H]1CCC[C@@H]1NC(=O)[C@H](CO)NC(=O)C(C)(C)NC(=O)[C@H](CC(=O)O)NC(=O)[C@H](CO)NC(=O)[C@@H](NC(=O)[C@H](Cc1ccccc1)NC(=O)[C@@H](NC(=O)CNC(=O)[C@H](CCC(=O)O)NC(=O)C(C)(C)NC(=O)[C@@H](N)Cc1c[nH]cn1)[C@@H](C)O)[C@@H](C)O)C(=O)N[C@@H](C)C(=O)N[C@@H](Cc1c[nH]c2ccccc12)C(=O)N[C@@H](CC(C)C)C(=O)N[C@H](C(=O)N[C@@H](CCCCN)C(=O)NCC(=O)N[C@@H](CCCNC(=N)N)C(N)=O)C(C)C,"β-arrestin-1 recruitment, BRET",HEK293FT with GRK5,2.69 nM
CC[C@H](C)[C@H](NC(=O)[C@H](Cc1ccccc1)NC(=O)[C@H](CCC(=O)O)NC(=O)[C@H](CCCCN)NC(=O)[C@H](C)NC(=O)[C@H](C)NC(=O)[C@H](CCC(N)=O)NC(=O)CNC(=O)[C@H](CCC(=O)O)NC(=O)[C@H](CC(C)C)NC(=O)[C@H](Cc1ccc(O)cc1)NC(=O)[C@H](CO)NC(=O)[C@H](CO)NC(=O)[C@@H](NC(=O)[C@H](CC(=O)O)NC(=O)[C@H](CO)NC(=O)[C@@H](NC(=O)[C@H](Cc1ccccc1)NC(=O)[C@@H](NC(=O)CNC(=O)[C@H](CCC(=O)O)NC(=O)C(C)(C)NC(=O)[C@@H](N)Cc1c[nH]cn1)[C@@H](C)O)[C@@H](C)O)C(C)C)C(=O)N[C@@H](C)C(=O)N[C@@H](Cc1c[nH]c2ccccc12)C(=O)N[C@@H](CC(C)C)C(=O)N[C@H](C(=O)N[C@@H](CCCCN)CN(CC(=O)N[C@@H](CCCNC(=N)N)C(=O)N[C@@H](CCCCN)CN(CC(N)=O)S(C)(=O)=O)S(C)(=O)=O)C(C)C,"reporter gene, luciferase",,0.04 nM
CC[C@H](C)[C@H](NC(=O)[C@H](Cc1ccccc1)NC(=O)[C@H](CCC(=O)O)NC(=O)[C@H](CCCCN)NC(=O)[C@H](C)NC(=O)[C@H](C)NC(=O)[C@H](CCC(N)=O)NC(=O)CNC(=O)[C@H](CCC(=O)O)NC(=O)[C@H](CC(C)C)NC(=O)[C@H](Cc1ccc(O)cc1)NC(=O)[C@H](CO)NC(=O)[C@H](CO)NC(=O)[C@@H](NC(=O)[C@H](CC(=O)O)NC(=O)[C@H](CO)NC(=O)[C@@H](NC(=O)[C@H](Cc1ccccc1)NC(=O)[C@@H](NC(=O)CNC(=O)[C@H](CCC(=O)O)NC(=O)[C@H](C)NC(=O)[C@H](Cc1c[nH]cn1)NCCC1(C)N=N1)[C@@H](C)O)[C@@H](C)O)C(C)C)C(=O)N[C@@H](C)C(=O)N[C@@H](Cc1c[nH]c2ccccc12)C(=O)N[C@@H](CC(C)C)C(=O)N[C@H](C(=O)N[C@@H](CCCCN)C(=O)NCC(=O)N[C@@H](CCCNC(=N)N)C(N)=O)C(C)C,"reporter gene, luciferase",,0.00794 nM

# Repeated from above:
SMILES,assay,system,EC50
CC[C@H](C)[C@H](NC(=O)[C@H](Cc1ccccc1)NC(=O)[C@H](CCC(=O)O)NC(=O)[C@H](CCCCN)NC(=O)[C@H](C)NC(=O)[C@H](C)NC(=O)[C@H](CCC(N)=O)NC(=O)CNC(=O)[C@H](CCC(=O)O)NC(=O)[C@H](CC(C)C)NC(=O)[C@H](Cc1ccc(O)cc1)NC(=O)[C@H](CO)NC(=O)[C@H](CO)NC(=O)C(C)(C)NC(=O)[C@H](CC(=O)O)NC(=O)[C@H](CO)NC(=O)[C@@H](NC(=O)[C@H](Cc1ccccc1)NC(=O)[C@@H](NC(=O)CNC(=O)[C@H](CCC(=O)O)NC(=O)[C@H](C)NC(=O)[C@@H](N)Cc1c[nH]cn1)[C@@H](C)O)[C@@H](C)O)C(=O)N[C@@H](C)C(=O)N[C@@H](Cc1c[nH]c2ccccc12)C(=O)N[C@@H](CC(C)C)C(=O)N[C@H](C(=O)N[C@@H](CCCCN)C(=O)NCC(=O)N[C@@H](CCCNC(=N)N)C(N)=O)C(C)C,"cAMP, luciferase",,0.0316 nM
